Measured values from different studies.
Each numbered part is a random draw from the data of one study; scales do not carry over between parts.

Sample 1
Target: Sal-like protein 4, full length isoform A (SALL4, Homo sapiens, UniProt Q9UJQ4, residues 1-1053)
Chain of UniProt Q9UJQ4 (whole entry, looked up): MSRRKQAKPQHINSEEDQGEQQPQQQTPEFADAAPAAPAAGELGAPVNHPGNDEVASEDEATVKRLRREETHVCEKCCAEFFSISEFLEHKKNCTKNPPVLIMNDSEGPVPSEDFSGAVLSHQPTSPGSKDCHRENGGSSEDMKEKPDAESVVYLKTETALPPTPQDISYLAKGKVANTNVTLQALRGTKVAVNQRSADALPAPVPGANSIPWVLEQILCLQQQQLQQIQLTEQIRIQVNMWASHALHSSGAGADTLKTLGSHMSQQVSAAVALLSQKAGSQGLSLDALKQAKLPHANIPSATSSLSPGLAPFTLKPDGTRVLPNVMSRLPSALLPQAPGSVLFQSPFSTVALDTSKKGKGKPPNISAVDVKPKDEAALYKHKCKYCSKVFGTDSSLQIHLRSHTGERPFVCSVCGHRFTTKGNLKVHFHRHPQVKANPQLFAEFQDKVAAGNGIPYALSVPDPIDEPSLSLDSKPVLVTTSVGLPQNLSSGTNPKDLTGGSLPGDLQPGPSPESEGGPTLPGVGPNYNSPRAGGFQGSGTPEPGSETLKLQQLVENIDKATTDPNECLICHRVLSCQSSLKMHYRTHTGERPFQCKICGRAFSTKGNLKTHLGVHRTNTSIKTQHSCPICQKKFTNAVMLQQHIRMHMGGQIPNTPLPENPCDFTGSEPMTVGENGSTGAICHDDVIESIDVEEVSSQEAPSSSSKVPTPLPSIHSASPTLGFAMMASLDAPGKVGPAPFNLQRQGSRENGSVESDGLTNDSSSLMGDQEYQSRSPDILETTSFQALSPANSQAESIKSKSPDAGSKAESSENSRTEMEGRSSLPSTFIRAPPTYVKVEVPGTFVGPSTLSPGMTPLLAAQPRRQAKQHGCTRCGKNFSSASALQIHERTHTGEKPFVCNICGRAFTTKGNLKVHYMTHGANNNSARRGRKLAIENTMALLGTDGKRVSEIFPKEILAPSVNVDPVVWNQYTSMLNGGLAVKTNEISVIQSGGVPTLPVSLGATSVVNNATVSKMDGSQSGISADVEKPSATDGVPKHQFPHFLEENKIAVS
Technique: universal PBM
Form: double-stranded DNA, one strand shown
Sample: in vitro
Tested at: 600 nM
Notes: 8-mer, flanks averaged, mean of replicates
Direction: higher = stronger binding
| Strand | E-score |
| --- | --- |
| ATAATCTA | 0.372 |
| CATCGCAG | -0.148 |
| CTATCTTA | 0.118 |
| ATAGTCGG | -0.295 |
| TATTAAAA | 0.436 |
| ATTACTAC | 0.248 |
| AATCCGTG | -0.081 |
| CCGTTCCA | -0.0234 |
| AATTGAAT | 0.28 |
| CTTAGAAA | 0.0838 |
| CTTGTTAA | 0.193 |
| AAGCGCAA | -0.0308 |
| AGGTGTAG | -0.12 |
| GGTGTTCA | -0.0112 |
| AGCTACCG | -0.264 |
| AAGCACTC | -0.109 |
| CATTCGGC | -0.159 |
| CACGCAAG | -0.0184 |
| TAAAGCGA | 0.114 |
| CACGAAAA | 0.158 |
| AATCAATA | 0.352 |
| AGTCATCA | -0.096 |
| ATCATTTG | 0.22 |
| CTCACAAC | 0.0437 |
| ATGGATAG | 0.0263 |

Sample 2
Target: Histone acetyltransferase KAT6A, winged helix 2, GST fusion (KAT6A, Homo sapiens, UniProt Q92794, residues 85-181)
Technique: protein binding microarray
Form: double-stranded DNA, one strand shown
Sample: in vitro
Tested at: not given
Notes: 8-mer, flanks averaged, mean of 2 arrays, mostly near background
Relative to: not given
Direction: higher = stronger binding
Construct (chain): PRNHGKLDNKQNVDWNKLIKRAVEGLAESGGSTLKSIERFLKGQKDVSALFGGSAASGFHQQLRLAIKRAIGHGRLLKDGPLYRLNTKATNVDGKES
| Strand | E-score |
| --- | --- |
| CCATCCCG | -0.00696 |
| CAATCGGC | -0.0409 |
| CCAGACAC | -0.0312 |
| CAAAAGGG | 0.103 |
| AAAAGTAT | -0.0102 |
| AAATGCAT | -0.0455 |
| CAAACTTA | -0.163 |
| CGTGCTGA | 0.0115 |
| CAGCGACG | -0.0147 |
| CATGTCAA | -0.1 |
| ATGTATCA | -0.086 |
| GCTAGCTA | 0.0718 |
| CCATCTGA | 0.101 |
| TAGTGCGA | 0.052 |
| CTTGGCGC | 0.137 |
| AGGTACTA | -0.0518 |
| CCAGAAAG | 0.0076 |
| ACAGCGAT | -0.0436 |

Sample 3
Target: Centromere-binding protein 1, full length, His-tagged (CBF1, Saccharomyces cerevisiae, UniProt P17106, residues 1-351)
Chain of UniProt P17106 (whole entry, looked up): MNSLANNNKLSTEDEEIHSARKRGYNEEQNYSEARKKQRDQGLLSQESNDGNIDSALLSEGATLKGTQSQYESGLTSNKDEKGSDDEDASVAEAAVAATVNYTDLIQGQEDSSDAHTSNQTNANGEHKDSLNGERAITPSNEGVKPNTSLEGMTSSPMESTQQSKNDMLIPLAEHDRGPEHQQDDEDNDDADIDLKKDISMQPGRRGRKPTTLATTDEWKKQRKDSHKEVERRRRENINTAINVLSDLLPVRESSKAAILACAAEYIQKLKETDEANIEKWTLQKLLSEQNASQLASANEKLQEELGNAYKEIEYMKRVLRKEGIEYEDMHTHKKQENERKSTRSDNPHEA
Technique: competition protein-binding microarray
Form: double-stranded DNA, one strand shown
Sample: in vitro
Tested at: 2 µM
Notes: whole 60-bp probe, lowest competitor level
With: Pho4 competitor, 0.05 µM
Direction: higher = stronger binding
| Strand | fluorescence intensity |
| --- | --- |
| TCACGGAACAACCGTCAGCGGAGATTAGAGAAGCCTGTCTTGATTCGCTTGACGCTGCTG | 72.4 a.u. |
| AAAGCGGTAATTTGCACCGTGGGTGCAGATATCTATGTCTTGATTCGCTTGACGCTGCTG | 86 a.u. |
| AACAATCTTCATAGCAACGTGAGTCTTGTTTACCATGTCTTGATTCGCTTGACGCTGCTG | 117 a.u. |
| CGGGGTTAAGTTTGTCCCGTGGGTGGCTTGCAGCAGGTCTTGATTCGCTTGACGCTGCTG | 89.5 a.u. |
| GCGGACCAAAAATCGCACGTAGCGCGATATTGTCGGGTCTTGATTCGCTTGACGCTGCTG | 67.2 a.u. |
| TTTCGAGCCAGTTTGCACGTAGTACGGGCCCCCCTAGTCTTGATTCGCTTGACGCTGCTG | 88.9 a.u. |
| CCTTTGAAGTATTTTCTCGTGGAAGCAGCCTCGTAAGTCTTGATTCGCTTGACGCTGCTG | 80.7 a.u. |
| GTTGCTTGCTAATTGCATGATCAAGTTGGGCCGACGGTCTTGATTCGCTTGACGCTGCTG | 72 a.u. |
| TGGGAGGCACTGAAGTCCGTGCCGATTCCTCGACGCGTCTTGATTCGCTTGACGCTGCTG | 60 a.u. |
| GTCTTGTCTCATTGGCGTGTGGGTGTCCCCACTTCAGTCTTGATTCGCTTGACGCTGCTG | 78.5 a.u. |
| CATAACCTTGCCTGCCAAGTGTGGCAAGCAATGACGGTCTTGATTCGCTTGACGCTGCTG | 70.8 a.u. |
| AAGTTCGCCAAGTTACACATGGGTACTGATGATGTCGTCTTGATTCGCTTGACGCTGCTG | 95.1 a.u. |
| AAAGTTATCAAGACCGACGTGTCCTCCTCGTCGTTCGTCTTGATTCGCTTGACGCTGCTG | 58.8 a.u. |
| CGTCCTAGTGATTGCTCCGTGGGTGCCATGAGGAAGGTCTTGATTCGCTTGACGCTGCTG | 79.3 a.u. |
| TCTTGACATGTTCGGCACGCAAAATACCACCTAGGGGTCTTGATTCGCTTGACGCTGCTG | 73.8 a.u. |
| GCTTAAGGGCTCGACCACGTGCGATTCGCTGCTCAAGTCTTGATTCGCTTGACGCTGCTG | 1080 a.u. |
| AAGTTCATATCCTAAAACGTGTTGACAACACTTCGGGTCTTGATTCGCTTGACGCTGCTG | 125 a.u. |

Sample 4
Target: RNA binding protein fox-1 homolog 2, RRM domain, GST-SBP tag (RBFOX2, Homo sapiens, UniProt O43251-10, residues 100-194)
Technique: RNA Bind-n-Seq
Form: RNA
Sample: in vitro
Tested at: 365 nM
Notes: natural RNA segment, single round, ends assumed
Relative to: no-protein control
Direction: higher = stronger binding
Target sequence (chain): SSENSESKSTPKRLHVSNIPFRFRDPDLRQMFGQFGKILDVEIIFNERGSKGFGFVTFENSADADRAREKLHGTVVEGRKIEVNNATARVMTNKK
| Strand | RBNS enrichment (R) |
| --- | --- |
| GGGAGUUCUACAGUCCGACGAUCUAUUUCUUCUCUACUCCCUAGUCUUAAUGUUUAACCUUGAAUGCUAUUAACUUAAAUAGCCAUUGAGGAGUUAGAAGAUGAAUUGUUCAUGAAGUCGGUGUUACAUAAAAUGGAAUUCUCGGGUGCCAA | 0.808 |
| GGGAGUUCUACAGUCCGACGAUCGUUGAAGGAGGUGUUGGGUGUUUUUAAAUAUUUAGUUAAUAUAUUCCUCAUGGACAUAAAAUACAUUCUUAGUUAUUAUCAUUAUGUCAAACAAGAAUGGCAAGCCUAAGUGGAAUUCUCGGGUGCCAA | 0.855 |
| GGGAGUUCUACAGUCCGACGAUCUAUAAUAAACAGCCGGUGGUUAUGGUGUGGUGUGAGCAGGCCCCCGGAUCACCAGCCCUCUGCUGGUGGUCAUAAAGCACACACAGUUUGUACUUGCUUCCUCUCGACGCUGGAAUUCUCGGGUGCCAA | 0.267 |
| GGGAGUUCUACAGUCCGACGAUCCUGGGCUUGUCCACGGCAGGAGGCCCCUGGCCUGUUUAAGCCAUACCGAUGCUUAAUUUACAUUUUUGGAGUUGAAUAUUAUUCCGGUGCCUCCACCACCCCCAGCAGAAUGGAAUUCUCGGGUGCCAA | 0.401 |
| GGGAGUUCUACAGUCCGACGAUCAGAUUUGAAUUAUCGAGGCAUUUAUUGUGUACUCUUCAACAGUGCUAAAUAAAACAACAUACCAAGCAAGUCUAGUCAUUAACACCCCUUGUUGGCAUCUAGCACAUCACUGGAAUUCUCGGGUGCCAA | 0.654 |
| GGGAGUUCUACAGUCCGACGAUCACUUCCAAGAAGAAAAACUGUUCUGUUGUAAAAAAUAUAAUUGCUCUUAAUUCUUGGGGAGGUUACUAAUAGCAGUAGGAUAGAAUUUUAUGAGGUUACCUACAACUACUUGGAAUUCUCGGGUGCCAA | 0.41 |
| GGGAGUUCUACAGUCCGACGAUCUCUGUAGAGCUGCCUGCCAAGCCACCUGAAACACAGUGGCUCCCUGUGACACUCAGGCCUCAGAUGAGCCUCGCUUGCCUUCACUGCUUCUGUUUUAAACAGUAGUAAAAUGGAAUUCUCGGGUGCCAA | 0.249 |
| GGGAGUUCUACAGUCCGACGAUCAAGGCUUGUAACCAAAACAAGCAAAAAGAAACUUUAGCUGUUUAACUAUCACCUCUCUAAUUUAAAAUGCAUGAAAAUUAAUACUUUGUUUUUGUUUUUUUUUUGGAAACUGGAAUUCUCGGGUGCCAA | 5.15 |
| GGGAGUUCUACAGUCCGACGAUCGAAGGGGAAGAGGGUGACCUCAGCGGCUUUUCUCCCAAAAAUCGGCUGAAGGCUGGUUGUGGAUCCUUGUUCCUCUCCUGACCCCAUCUGGCUGCUGCCCCGUCUCCCACUGGAAUUCUCGGGUGCCAA | 0.334 |
| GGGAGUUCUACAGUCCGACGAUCCACUUAUAUUGUACAAUACUUCAGACUGUUUUUUUUAAAUACAUAAAACUUUAUGUUAAAAAACUCUAUUAACAUGGCCAAUUGGCAUGACUCCUCUUAUGAGGGAUGGGUGGAAUUCUCGGGUGCCAA | 0.653 |
| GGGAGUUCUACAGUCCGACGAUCGAUGAUUUAAAAUUUUAAACCUGUUACAUUGAAAAACAUUGAAGUUCGUCUUGAAGAAAGCAUUAAGGUAUGCAUGGAGGUGAUUUAUUUUUAAACAUAACACCUAACCUUGGAAUUCUCGGGUGCCAA | 19.3 |
| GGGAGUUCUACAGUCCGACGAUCUCGGAUUCCUUGUGUCCUUUGUGCUAGUGUAACCCGGGACUGGAAUGUAAAGUGAAGUUCGGAGCUCUGAGCACGGGCUCUUCCCGCCGGGUCCUCCCUCCCCAGACCCCUGGAAUUCUCGGGUGCCAA | 0.735 |

Repeated from above (sample 1):
| Strand | E-score |
| --- | --- |
| AATTGAAT | 0.28 |
| CACGCAAG | -0.0184 |
| AGCTACCG | -0.264 |
| ATCATTTG | 0.22 |
| ATAATCTA | 0.372 |
| CTTAGAAA | 0.0838 |
| CTTGTTAA | 0.193 |
| CTCACAAC | 0.0437 |
| AATCCGTG | -0.081 |
| CATTCGGC | -0.159 |
| CACGAAAA | 0.158 |
